Measured values pooled from the literature.
Compare with care: the assays were run in different laboratories. Numbers after ± are the reported error.

Structure (SMILES)	target	assay	system	setting	IC50
N=C(N)c1ccc(-c2ccc(-c3nc4ccc(C(=N)N)cc4[nH]3)[se]2)cc1	PU.1	reporter gene, inhibitor, refers to: EGFP	PU.1-expressing HEK293 cells	24 h	> 100 µM
O=c1cc(-c2ccccc2)oc2c(Br)c(O)c(Br)c(O)c12	BSA glycation	fluorescence	–	with: methylglyoxal	10.1 to 100 µM
COc1cc(/C=C/C(=O)c2ccc(O)cc2O)ccc1O	HDAC class I, II and IV (human)	enzyme activity, inhibitor, fluorometric	K562 cell extract	1 h, 37 °C	190 µM
Oc1ccc(-c2cc(-c3ccc(OCCCN4CCCCC4)cc3)n(-c3ccc(O)cc3)n2)cc1	TLR2 (mouse)	TNF-alpha production, inhibitor	RAW264.7	6 h, with: Pam3Cys 100 ng/mL	7.12 ± 0.54 µM
O=C(/C=C/c1ccc(O)cc1)c1ccccc1	HDAC class I, II and IV (human)	enzyme activity, inhibitor, fluorometric	K562 cell extract	1 h, 37 °C	> 1000 µM
COc1cc(CCC(C)=O)ccc1O	mouse mAb 1-F12	antibody binding, indirect competitive ELISA	–	with: coating antigen 6-OVA	0.22 µg/mL
c1cc2nc(-c3ccc(-c4nc5ccc(C6=NCCN6)cc5[nH]4)[se]3)[nH]c2cc1C1=NCCN1	PU.1	reporter gene, inhibitor, refers to: EGFP	PU.1-expressing HEK293 cells	–	~0.5 µM
Cc1ccc(CNC(=O)C(CCc2ccccc2)NC(=O)C(NC(=O)c2ccc(OCc3ccc(C(C)(C)C)cc3)cc2)C(C)O)cc1 (stereo not shown)	proteasome β5 site	Proteasome-Glo	Karpas-1106P	1 h	0.2 µM
N=C(N)c1ccc2nc(-c3ccc(-c4nc5ccc(C(=N)N)cc5[nH]4)[se]3)[nH]c2c1	PU.1	reporter gene, inhibitor, refers to: EGFP	PU.1-expressing HEK293 cells	24 h	3.8 µM
CC[C@H](C)[C@@H]1NC(=O)[C@H](Cc2ccc(O)cc2)NC(=O)[C@@H](N)CSSC[C@@H](C(=O)N2CCC[C@H]2C(=O)N2CCC[C@H]2C(=O)NCC(N)=O)NC(=O)[C@H](CC(N)=O)NC(=O)[C@H](CCC(N)=O)NC1=O	vasopressin V1a receptor, Macaca mulatta	membrane hyperpolarization, FLIPR membrane potential	CHO transfected with receptor	–	0.000203 µM
O=C(/C=C/c1ccc(O)c(O)c1)c1ccc(O)cc1O	HDAC class I, II and IV (human)	enzyme activity, inhibitor, fluorometric	K562 cell extract	1 h, 37 °C	60 µM
CCC(=O)CCCCC[C@@H]1NC(=O)[C@@H](CC(C)C)n2cc(nn2)[C@H]([C@@H](C)CC)NC(=O)[C@H](Cc2c[nH]c3ccccc23)NC1=O	histone deacetylase	enzyme activity, inhibitor, fluorescence	HeLa nuclear extract	–	~0.2 µM
O=C(/C=C/c1ccc(O)cc1)c1ccc(O)cc1O	HDAC class I, II and IV (human)	enzyme activity, inhibitor, fluorometric	K562 cell extract	1 h, 37 °C	110 µM
CC(C)NC(=O)[C@H](CCc1ccccc1)NC(=O)[C@H](CC(=O)NCC(C)(C)C)NC(=O)CCc1ccccc1	proteasome β5 site	Proteasome-Glo	WSUDLCL2	1 h	0.12 µM
COc1cc(O)c(C(=O)/C=C/c2ccc(O)cc2)c(OC)c1	HDAC class I, II and IV (human)	enzyme activity, inhibitor, fluorometric	K562 cell extract	1 h, 37 °C	> 1000 µM
CCCCC/C=C/C(=O)CCc1ccc(O)c(OC)c1	mAb 5-3H1	antibody binding, indirect competitive ELISA	–	with: coating antigen 5-OVA	0.311 µg/mL
